# Published values gathered from unrelated publications.
# Each numbered part is a random draw from the data of one study; scales do not carry over between parts.
# Sequence of UniProt O00329 (whole entry, looked up): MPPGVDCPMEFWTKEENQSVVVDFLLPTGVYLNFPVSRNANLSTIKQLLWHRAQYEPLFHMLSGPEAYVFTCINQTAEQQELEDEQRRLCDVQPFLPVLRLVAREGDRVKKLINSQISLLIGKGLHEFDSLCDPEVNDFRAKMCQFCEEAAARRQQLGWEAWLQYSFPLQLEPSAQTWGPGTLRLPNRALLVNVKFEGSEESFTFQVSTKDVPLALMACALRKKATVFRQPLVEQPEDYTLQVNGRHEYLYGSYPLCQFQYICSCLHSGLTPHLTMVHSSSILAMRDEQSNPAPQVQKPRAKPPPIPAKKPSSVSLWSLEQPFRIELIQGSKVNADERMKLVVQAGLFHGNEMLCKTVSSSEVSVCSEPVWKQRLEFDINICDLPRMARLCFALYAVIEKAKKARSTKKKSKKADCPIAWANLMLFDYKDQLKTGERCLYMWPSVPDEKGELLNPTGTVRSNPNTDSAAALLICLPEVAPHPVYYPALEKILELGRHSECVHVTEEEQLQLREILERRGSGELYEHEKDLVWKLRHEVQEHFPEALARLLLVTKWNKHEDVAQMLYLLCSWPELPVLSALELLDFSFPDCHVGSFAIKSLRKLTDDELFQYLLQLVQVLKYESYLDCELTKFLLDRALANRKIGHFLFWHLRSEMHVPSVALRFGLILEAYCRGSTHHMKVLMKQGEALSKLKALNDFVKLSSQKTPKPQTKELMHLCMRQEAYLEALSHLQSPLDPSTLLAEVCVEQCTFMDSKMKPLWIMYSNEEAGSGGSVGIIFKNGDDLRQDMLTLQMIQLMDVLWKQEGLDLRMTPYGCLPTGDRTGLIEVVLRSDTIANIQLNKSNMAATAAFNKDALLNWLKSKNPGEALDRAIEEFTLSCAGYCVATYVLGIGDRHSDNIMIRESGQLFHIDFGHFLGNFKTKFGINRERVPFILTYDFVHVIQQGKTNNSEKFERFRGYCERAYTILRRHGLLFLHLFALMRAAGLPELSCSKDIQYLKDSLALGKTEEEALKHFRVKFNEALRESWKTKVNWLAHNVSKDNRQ
# Sequence of UniProt Q05655 (whole entry, looked up): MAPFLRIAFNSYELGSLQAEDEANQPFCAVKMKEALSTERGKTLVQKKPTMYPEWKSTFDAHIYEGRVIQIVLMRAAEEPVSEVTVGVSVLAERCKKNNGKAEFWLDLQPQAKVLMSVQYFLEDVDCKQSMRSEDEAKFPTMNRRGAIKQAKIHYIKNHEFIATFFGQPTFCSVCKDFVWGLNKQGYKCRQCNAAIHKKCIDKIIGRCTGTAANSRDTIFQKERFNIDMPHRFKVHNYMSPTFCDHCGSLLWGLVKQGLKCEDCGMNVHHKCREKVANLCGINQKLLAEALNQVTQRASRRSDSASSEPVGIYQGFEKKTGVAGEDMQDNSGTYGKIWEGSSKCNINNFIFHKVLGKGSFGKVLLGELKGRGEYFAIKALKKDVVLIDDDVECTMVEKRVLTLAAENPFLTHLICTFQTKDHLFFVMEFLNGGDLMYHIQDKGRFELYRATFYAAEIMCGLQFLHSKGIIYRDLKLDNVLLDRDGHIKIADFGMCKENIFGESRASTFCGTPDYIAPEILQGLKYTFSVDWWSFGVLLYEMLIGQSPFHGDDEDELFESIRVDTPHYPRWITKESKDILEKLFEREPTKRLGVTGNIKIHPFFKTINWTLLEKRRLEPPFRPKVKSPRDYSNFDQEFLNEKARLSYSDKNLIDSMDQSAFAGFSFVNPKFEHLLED
# Sequence of UniProt P53778 (whole entry, looked up): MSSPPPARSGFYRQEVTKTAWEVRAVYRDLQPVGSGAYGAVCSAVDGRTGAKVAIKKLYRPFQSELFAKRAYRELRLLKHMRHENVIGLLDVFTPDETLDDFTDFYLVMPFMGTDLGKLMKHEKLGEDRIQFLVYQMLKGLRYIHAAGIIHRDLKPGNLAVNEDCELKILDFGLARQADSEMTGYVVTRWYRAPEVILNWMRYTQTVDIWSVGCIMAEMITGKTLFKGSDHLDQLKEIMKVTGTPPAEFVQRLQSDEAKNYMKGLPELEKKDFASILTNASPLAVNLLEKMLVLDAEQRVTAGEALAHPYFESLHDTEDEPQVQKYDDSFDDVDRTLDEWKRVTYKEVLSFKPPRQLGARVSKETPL
# Sequence of UniProt Q07912 (whole entry, looked up): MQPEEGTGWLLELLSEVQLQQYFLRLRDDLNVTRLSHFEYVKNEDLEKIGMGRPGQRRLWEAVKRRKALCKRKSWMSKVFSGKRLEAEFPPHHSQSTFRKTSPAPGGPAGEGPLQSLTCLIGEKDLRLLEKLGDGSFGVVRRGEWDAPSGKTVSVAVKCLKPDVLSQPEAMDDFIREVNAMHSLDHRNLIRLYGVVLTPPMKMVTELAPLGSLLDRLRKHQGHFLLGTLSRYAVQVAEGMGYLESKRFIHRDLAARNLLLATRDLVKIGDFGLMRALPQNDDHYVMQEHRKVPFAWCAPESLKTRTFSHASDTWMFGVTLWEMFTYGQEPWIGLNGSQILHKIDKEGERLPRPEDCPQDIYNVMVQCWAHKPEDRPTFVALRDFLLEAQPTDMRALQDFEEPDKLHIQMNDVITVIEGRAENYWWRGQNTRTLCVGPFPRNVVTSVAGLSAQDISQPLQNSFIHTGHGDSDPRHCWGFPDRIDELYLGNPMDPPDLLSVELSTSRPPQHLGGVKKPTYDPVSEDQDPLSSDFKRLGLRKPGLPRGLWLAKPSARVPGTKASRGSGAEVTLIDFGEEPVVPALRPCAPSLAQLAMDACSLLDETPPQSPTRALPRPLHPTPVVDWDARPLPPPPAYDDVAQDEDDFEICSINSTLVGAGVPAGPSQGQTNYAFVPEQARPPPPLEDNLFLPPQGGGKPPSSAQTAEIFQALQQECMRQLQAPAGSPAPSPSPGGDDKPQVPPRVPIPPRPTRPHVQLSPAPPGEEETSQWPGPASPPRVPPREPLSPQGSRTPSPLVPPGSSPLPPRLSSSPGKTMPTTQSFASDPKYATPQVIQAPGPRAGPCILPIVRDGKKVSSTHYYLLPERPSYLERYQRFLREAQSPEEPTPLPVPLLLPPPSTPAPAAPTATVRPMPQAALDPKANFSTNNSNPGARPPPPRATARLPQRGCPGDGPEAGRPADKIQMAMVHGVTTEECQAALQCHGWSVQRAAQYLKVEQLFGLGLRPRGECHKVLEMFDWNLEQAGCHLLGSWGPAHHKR
# Sequence of UniProt O00444 (whole entry, looked up): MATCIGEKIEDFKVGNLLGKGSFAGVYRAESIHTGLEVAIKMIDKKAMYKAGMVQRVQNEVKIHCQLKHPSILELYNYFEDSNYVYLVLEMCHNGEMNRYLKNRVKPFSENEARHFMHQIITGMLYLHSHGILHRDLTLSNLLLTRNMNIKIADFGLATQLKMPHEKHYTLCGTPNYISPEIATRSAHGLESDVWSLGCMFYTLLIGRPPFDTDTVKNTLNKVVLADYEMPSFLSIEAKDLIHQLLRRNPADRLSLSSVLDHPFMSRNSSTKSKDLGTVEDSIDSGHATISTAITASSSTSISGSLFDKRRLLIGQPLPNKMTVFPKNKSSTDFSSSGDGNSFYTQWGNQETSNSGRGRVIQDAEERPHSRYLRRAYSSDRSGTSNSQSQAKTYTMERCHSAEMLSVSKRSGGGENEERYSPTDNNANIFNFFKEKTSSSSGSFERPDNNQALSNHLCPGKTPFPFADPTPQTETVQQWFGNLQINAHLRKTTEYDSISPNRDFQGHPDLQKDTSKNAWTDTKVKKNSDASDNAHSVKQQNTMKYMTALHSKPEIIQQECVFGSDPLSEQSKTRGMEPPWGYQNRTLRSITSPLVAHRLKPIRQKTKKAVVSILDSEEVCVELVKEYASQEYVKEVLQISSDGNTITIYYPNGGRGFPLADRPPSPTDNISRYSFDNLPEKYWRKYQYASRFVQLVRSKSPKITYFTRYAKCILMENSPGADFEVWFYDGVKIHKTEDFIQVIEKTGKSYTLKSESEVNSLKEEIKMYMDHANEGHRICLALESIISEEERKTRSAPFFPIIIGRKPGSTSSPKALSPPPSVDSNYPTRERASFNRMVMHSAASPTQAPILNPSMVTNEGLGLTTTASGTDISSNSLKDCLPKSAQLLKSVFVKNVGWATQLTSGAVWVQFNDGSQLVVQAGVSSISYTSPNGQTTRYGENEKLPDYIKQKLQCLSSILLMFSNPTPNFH
# Sequence of UniProt P56817 (whole entry, looked up): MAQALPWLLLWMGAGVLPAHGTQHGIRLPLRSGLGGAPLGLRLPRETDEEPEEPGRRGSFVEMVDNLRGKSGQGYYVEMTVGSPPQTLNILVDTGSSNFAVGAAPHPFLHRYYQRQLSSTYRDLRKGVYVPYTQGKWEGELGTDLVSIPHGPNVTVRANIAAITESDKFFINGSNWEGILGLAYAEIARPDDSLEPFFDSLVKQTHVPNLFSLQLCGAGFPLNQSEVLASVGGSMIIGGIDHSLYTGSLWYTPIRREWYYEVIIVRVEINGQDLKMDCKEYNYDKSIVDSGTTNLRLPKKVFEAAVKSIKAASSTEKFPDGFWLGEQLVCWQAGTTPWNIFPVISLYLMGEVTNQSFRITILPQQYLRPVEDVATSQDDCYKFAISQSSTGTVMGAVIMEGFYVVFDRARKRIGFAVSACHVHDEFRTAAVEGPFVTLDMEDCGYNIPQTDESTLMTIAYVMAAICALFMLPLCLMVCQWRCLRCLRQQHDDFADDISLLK
# Sequence of UniProt O43293 (whole entry, looked up): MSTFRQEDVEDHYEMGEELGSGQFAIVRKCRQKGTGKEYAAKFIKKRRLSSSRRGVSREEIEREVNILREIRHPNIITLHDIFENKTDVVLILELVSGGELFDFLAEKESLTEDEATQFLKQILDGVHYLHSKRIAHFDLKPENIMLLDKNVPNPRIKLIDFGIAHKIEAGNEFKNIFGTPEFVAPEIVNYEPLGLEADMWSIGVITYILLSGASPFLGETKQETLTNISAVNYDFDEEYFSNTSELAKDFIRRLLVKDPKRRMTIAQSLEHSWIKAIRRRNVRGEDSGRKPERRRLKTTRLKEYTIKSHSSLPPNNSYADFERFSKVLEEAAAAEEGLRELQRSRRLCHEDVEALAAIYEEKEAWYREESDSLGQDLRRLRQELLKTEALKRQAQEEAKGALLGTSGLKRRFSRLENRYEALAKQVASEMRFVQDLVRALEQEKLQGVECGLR

# Set 1
# SMILES: CCOC(=O)c1ccc(OC(=O)CCCCCNC(=N)N)cc1
# Concentration: 10 µM
target,observed,mode,inhibition [%]
"Beta-secretase 1 (BACE1, Homo sapiens, UniProt P56817)",,,0
"TNFAIP3 (Homo sapiens, UniProt P21580)",enzyme activity,inhibitor,4
"Genome polyprotein, NS3 protease (Hepatitis C virus genotype 1b, UniProt Q9WMX2, R1181K)",,,0
"Genome polyprotein, NS3 protease (Hepatitis C virus genotype 1b, UniProt Q9WMX2, R1181Q)",,,12
"PREP (Homo sapiens, UniProt P48147)",,,27
"Caspase-6 (CASP6, Homo sapiens, UniProt P55212)",enzyme activity,inhibitor,0
"Genome polyprotein (Hepatitis C virus genotype 1b, UniProt Q9WMX2)",protease activity,inhibitor,29

# Set 2
# Cell line: HEK-293T/ACE2
# Concentration: 10 µM
# Time: 16 h
# Relative to: vehicle
SMILES,viability
COc1cc(NC(C)CCCN)c2ncccc2c1 (centres unmarked),102%
COc1ccc(C(=O)CC(=O)c2ccc(C(C)(C)C)cc2)cc1,101%
NC12CC3CC(CC(C3)C1)C2,95.1%
CCn1cc(C(=O)O)c(=O)c2ccc(C)nc21,104%
CCC1(C)CC(=O)NC1=O (centres unmarked),97.3%
Nc1nc(O)c2ncn(COC(CO)CO)c2n1,97.4%
C[C@@H]1O[C@@H](OC[C@H]2O[C@@H](Oc3c(-c4ccc(O)c(O)c4)oc4cc(O)cc(O)c4c3=O)[C@H](O)[C@@H](O)[C@@H]2O)[C@H](O)[C@H](O)[C@H]1O,105%
CC(C)c1nc(CN(C)C(=O)N[C@H](C(=O)N[C@@H](Cc2ccccc2)C[C@H](O)[C@H](Cc2ccccc2)NC(=O)OCc2cncs2)C(C)C)cs1,103%
CN(C/C=C/C#CC(C)(C)C)Cc1cccc2ccccc12,97.6%
CCCCOc1ccc(C(=O)CCN2CCCCC2)cc1,100%
Nc1nc2[nH]cc(CCc3ccc(C(=O)N[C@@H](CCC(=O)O)C(=O)O)cc3)c2c(=O)[nH]1,81.7%
C[N+]12CCC(CC1)C(OC(=O)C(O)(c1ccccc1)c1ccccc1)C2 (centres unmarked),105%
Cc1nc(-c2ccc(OCC(C)C)c(C#N)c2)sc1C(=O)O,104%

# Set 3
# Species: mouse
# Medium: microsomes or S9
# Concentration: 2 µM
# Time: 0.5 h
SMILES,remaining compound [%]
c1cc2c(cn1)CN(c1ncnc3sc4c(c13)CCCC4)C2,2.69
O=C1N=C(O)C(CCc2ccncc2)(Cc2ccc(OCc3ccccc3)cc2)C(=O)N1 (centres unmarked),16.8
O=S(=O)(CC1C(c2ccccc2)N1c1ccccc1)c1ccccc1 (centres unmarked),0.285
CC(C)CCC1(CN2CCCC2=O)C(=O)NC(=O)NC1=O,98.7
CC(C)=CCN1CCCC(C(=O)c2nccn2C)C1 (centres unmarked),45.7

# Set 4
# SMILES: N#CC1(c2ccccn2)CCN(Cc2cc(C(=O)O)c(=O)n3ccccc23)CC1
# Observed: cell-free assay
# Technique: competition with immobilised ligand
# Concentration: 1 µM
target,remaining binding
"LRRK2 (Homo sapiens, UniProt Q5S007)",65%
"HIPK4 (Homo sapiens, UniProt Q8NE63)",95%
"PRKCD (Homo sapiens, UniProt Q05655)",100%
"TLK1 (Homo sapiens, UniProt Q9UKI8)",97%
"PLK4 (Homo sapiens, UniProt O00444)",90%
"EIF2AK1 (Homo sapiens, UniProt Q9BQI3)",86%
"MAP3K13 (Homo sapiens, UniProt O43283)",78%
"DAPK3 (Homo sapiens, UniProt O43293)",95%
"PIK3CA (Homo sapiens, UniProt P42336, M1043I)",91%
"FLT3 (Homo sapiens, UniProt P36888, D835V)",100%
"PAK6 (Homo sapiens, UniProt Q9NQU5)",100%
"MYLK (Homo sapiens, UniProt Q15746)",87%
"FLT3 (Homo sapiens, UniProt P36888, D835H)",100%
"CDK8 (Homo sapiens, UniProt P49336)",100%
"PIK3CD (Homo sapiens, UniProt O00329)",91%
"MAPK12 (Homo sapiens, UniProt P53778)",78%
"LTK (Homo sapiens, UniProt P29376)",100%
"HUNK (Homo sapiens, UniProt P57058)",100%
"SRPK3 (Homo sapiens, UniProt Q9UPE1)",95%
"MAP3K19 (Homo sapiens, UniProt Q56UN5)",77%
"TNK2 (Homo sapiens, UniProt Q07912)",99%
"Ribosomal protein S6 kinase alpha-3, N-terminal kinase domain (RPS6KA3, Homo sapiens, UniProt P51812)",81%
"STK38 (Homo sapiens, UniProt Q15208)",93%
"CIT (Homo sapiens, UniProt O14578)",98%
"NIM1K (Homo sapiens, UniProt Q8IY84)",69%

# Some of these lines once more (set 1):
target,observed,mode,inhibition [%]
"Caspase-6 (CASP6, Homo sapiens, UniProt P55212)",enzyme activity,inhibitor,0
"Genome polyprotein, NS3 protease (Hepatitis C virus genotype 1b, UniProt Q9WMX2, R1181K)",,,0
"Genome polyprotein, NS3 protease (Hepatitis C virus genotype 1b, UniProt Q9WMX2, R1181Q)",,,12
"Beta-secretase 1 (BACE1, Homo sapiens, UniProt P56817)",,,0
"Genome polyprotein (Hepatitis C virus genotype 1b, UniProt Q9WMX2)",protease activity,inhibitor,29
"PREP (Homo sapiens, UniProt P48147)",,,27
"TNFAIP3 (Homo sapiens, UniProt P21580)",enzyme activity,inhibitor,4
